Assay results from different studies.
Values joined by “and” are separate records of one study, mostly repeats; a detail may differ. ± marks the error that the study gave.

Structure (SMILES)	cell line	test	setting	how to read	quantity	result
CCC(=CCc1c(O)cc2c(c1O)C(=O)CC(c1ccc(O)cc1)O2)CC (centres unmarked)	HeLa	flow cytometry, PI staining	12 µM, 48 h	–	cells in S phase	27%
Cc1ccncc1.[Cl-].[Cl-].[Ru+2].c1cc(-c2ccc3cccnc3n2)nc(-c2ccc3cccnc3n2)c1.c1ccc2cc3nc4c5cccnc5c5ncccc5c4nc3cc2c1	B16-F10	photocytotoxicity, resazurin	visible light 400-700 nm, 20 mW, 100 J/cm2	–	EC50	939 nM and 940 nM
[BH3-][P+]1(c2ccccc2)CCCCC1	HCT-116	Annexin V-FITC/PI flow cytometry	IC50, 72 h	–	late apoptotic cells	3.15%
COc1cc(/C=C/C(=O)/C=C(O)/C=C/c2ccc(OCC(=O)N3CCOCCOCCOCC3)c(OC)c2)ccc1OCC(=O)N1CCOCCOCCOCC1	U-251	cell growth or viability, SRB	25 µM	–	inhibition	54.2%
Cc1cc(Cl)cc(-c2ccnc3cc(CN4C(=O)C5C(C4=O)C5(C)C)sc23)c1C[C@@H]1CNCCO1 (some centres unmarked)	CHP-212 resistant	PI flow cytometry	0.3 µM, 24 h	–	G2/M phase cells	12.1%
CN1CCCNC(=O)c2cccc(c2)C(=O)NCCCN(C)CCCNc2cccc3c2C(=O)c2cccc(c2C3=O)NCCC1	SAS	RNA-Seq, measured: MRPL10 mRNA	1 µM, 6 h	baseline: untreated cells	log2 fold change	0.485
CCOc1cncc(-c2ccc(NC(=O)C3(c4ccnc(NS(=O)(=O)C5CC5)n4)CCOCC3)nc2)n1	SU-DHL-4	cell growth or viability, ATP luminescence	72 h	–	IC50	356 nM
Cc1nc(Nc2ncc(C(=O)Nc3c(C)cccc3Cl)s2)cc(N2CCN(C(=O)CN)CC2)n1	KU812	flow cytometry	concentration not given, 24 h	–	late apoptotic cells	21.2% and 21.7% and 22.1%
CC(C)Cc1ccc(C(C)C(=O)[Se]CC(=O)Nc2cccc(C(F)(F)F)c2)cc1 (centres unmarked)	NCI60 breast subpanel	cell growth	10 µM, 48 h, one-dose	–	mean growth percent	-76.3%
CNS(=O)(=O)Nc1nccc(Cc2c(C)c3ccc(Oc4ncccc4F)cc3oc2=O)c1F	SK-NEP-1	cell viability	7 days	–	IC50	> 1000 nM
CCN(CC)CC(=O)Nc1cccc(-n2cc(-c3ccc4ccc(-c5cn(-c6cccc(NC(=O)CN(CC)CC)c6)nn5)cc4c3)nn2)c1	RCC4	PCR angiogenesis array, measured: ID1	5 x IC50, 2 h, normoxia	baseline: untreated	fold regulation	2.47
Cc1ncsc1-c1ccc(C(C)NC(=O)C2CC(O)CN2C(=O)C(NC(=O)CCCCCCCCCCN2CCCC(Nc3ncc(Cl)c(Nc4ccccc4S(=O)(=O)C(C)C)n3)C2)C(C)(C)C)cc1 (centres unmarked)	22Rv1	RNA-seq, measured: ZNF616 mRNA	concentration not given	baseline: DMSO	log2 fold change	-2.1
O=C(C[Se]C(=O)c1cc2ccccc2s1)Nc1cccc(C(F)(F)F)c1	OVCAR-4	cell growth or viability, SRB	–	–	GI50	500 nM
C=CC(=O)N1CCCC(n2c(=O)c3ncccc3n(Cc3ccc(Oc4ccccc4)cc3)c2=O)C1 (centres unmarked)	Rec1	measured: IGHV4-39	concentration not given	baseline: untreated	log2 fold change	-1.22
CC(C)(C)c1cc(-c2ccc3cc4ccccc4nc3n2)nc(-c2ccc3cc4ccccc4nc3n2)c1.Cc1ccncc1.[Cl-].[Cl-].[Ru+2].c1ccc2cc3nc4c5cccnc5c5ncccc5c4nc3cc2c1	B16-F10	–	visible light 100 J/cm2	baseline: dark EC50 over light EC50	phototherapeutic index	9
C=C(NC(=O)c1csc(-c2ccc(NC(=O)CCCCCBr)cc2)n1)C(=O)NC(=C)C(=O)OC	NCI-H2009	cell growth or viability	–	–	EC50	1100 nM
CC(=O)NCC(=O)N[C@@H](Cc1ccccc1)C(=O)N[C@@H](Cc1ccccc1)C(=O)N[C@@H](Cc1ccc(O)cc1)C(=O)O	mouse dermal papilla cells	–	100 nM, 48 h	–	EdU-positive cells	7.9%
CC(C)c1ccc(N(C)c2ccc3c(c2)OCC[C@H]3CNc2cnccc2C(=O)O)cc1	NCI-H2009	cell growth or viability, ATP luminescence	7 days	–	IC50	≥ 10000 nM
CSCC[C@H](N)C(=O)N[C@@H](C)C(=O)N[C@@H](CCCNC(=N)N)C(=O)N[C@@H](CCCNC(=N)N)C(=O)N[C@@H](CC(=O)O)C(=O)N[C@@H](CCCCN)C(=O)N[C@H](C(=O)N[C@@H](CC(=O)O)C(=O)N[C@@H](Cc1ccccc1)C(=O)N[C@@H](C)C(=O)N[C@@H](CCCNC(=N)N)C(=O)N[C@@H](CCCNC(=N)N)C(=O)N[C@@H](CCCNC(=N)N)C(=O)N[C@@H](CCCNC(=N)N)C(=O)NCCCCCC(=O)NCCCCC(NC(=O)CCCCCNC(=O)[C@H](CCCNC(=N)N)NC(=O)[C@H](CCCNC(=N)N)NC(=O)[C@H](CCCNC(=N)N)NC(=O)[C@H](CCCNC(=N)N)NC(=O)[C@H](C)NC(=O)[C@H](Cc1ccccc1)NC(=O)[C@H](CC(=O)O)NC(=O)[C@@H](NC(=O)[C@H](CCCCN)NC(=O)[C@H](CC(=O)O)NC(=O)[C@H](CCCNC(=N)N)NC(=O)[C@H](CCCNC(=N)N)NC(=O)[C@H](C)NC(=O)[C@@H](N)CCSC)[C@@H](C)O)C(=O)NCCCCC(NC(=O)C(CCCCNC(=O)CCCCCNC(=O)[C@H](CCCNC(=N)N)NC(=O)[C@H](CCCNC(=N)N)NC(=O)[C@H](CCCNC(=N)N)NC(=O)[C@H](CCCNC(=N)N)NC(=O)[C@H](C)NC(=O)[C@H](Cc1ccccc1)NC(=O)[C@H](CC(=O)O)NC(=O)[C@@H](NC(=O)[C@H](CCCCN)NC(=O)[C@H](CC(=O)O)NC(=O)[C@H](CCCNC(=N)N)NC(=O)[C@H](CCCNC(=N)N)NC(=O)[C@H](C)NC(=O)[C@@H](N)CCSC)[C@@H](C)O)NC(=O)CCCCCNC(=O)[C@H](CCCNC(=N)N)NC(=O)[C@H](CCCNC(=N)N)NC(=O)[C@H](CCCNC(=N)N)NC(=O)[C@H](CCCNC(=N)N)NC(=O)[C@H](C)NC(=O)[C@H](Cc1ccccc1)NC(=O)[C@H](CC(=O)O)NC(=O)[C@@H](NC(=O)[C@H](CCCCN)NC(=O)[C@H](CC(=O)O)NC(=O)[C@H](CCCNC(=N)N)NC(=O)[C@H](CCCNC(=N)N)NC(=O)[C@H](C)NC(=O)[C@@H](N)CCSC)[C@@H](C)O)C(N)=O)[C@@H](C)O (some centres unmarked)	mouse C57BL/6 BMMs	–	0.3 µM, 3 days, with: RANKL	baseline: untreated control	osteoclast formation	34%
CCN(C(=O)c1cc(F)ccc1Oc1nncnc1N1CCC2(C1)CN([C@H](CCCN(C)CCOC)C(C)C)C2)C(C)C	5637	cell growth	72 h	–	GI50	> 10000 nM
CC(=NN=c1sc(C(=O)c2ccccc2)nn1-c1ccccc1)c1ccc(S(=O)(=O)N2CCC(C)CC2)cc1	HCT-116	flow cytometry	3.66 µM (IC50), 72 h	–	cells in G0/G1 phase	44.1%
CC(C)(C)c1cc(-c2ccc3cccnc3n2)nc(-c2ccc3cccnc3n2)c1.[Cl-].[Cl-].[Ru+2].c1cnc2c(c1)ccc1cccnc12	B16-F10	photocytotoxicity, resazurin	visible light 400-700 nm, 20 mW, 100 J/cm2	–	EC50	121000 ± 5000 nM
Cn1ncc2cc(-c3cncc(Cl)c3N3CCC4(CCNC4=O)CC3)ccc21	LS174T	gene expression, microarray, measured: TTN mRNA	concentration not given, 24 h	baseline: untreated cells	log2 fold change	-1.39
